Results from different studies.
Converted amounts (≈) assume the structure as drawn.
cofactor-independent phosphoglycerate mutase W431C: cofactor-independent phosphoglycerate mutase (Metamycoplasma orale, UniProt A0A448ZXM1, W431C)

The remaining activity of COc1ccc(-c2ccc3oc(-c4ccc(OC)cc4)c(C#CC4(O)CCCCC4)c3c2)cc1 is reported as 76.5% (hepatitis C virus; viral entry, HCV pseudoparticle entry; genotype 1b; 10 µM; reference: DMSO).
CCCC[C@H](NC(=O)CNC(=O)CNC(=O)c1ccc(NN)nc1)C(=O)N[C@H]1CC(=O)NCCCC[C@@H](C(N)=O)NC(=O)[C@H](Cc2c[nH]c3ccccc23)NC(=O)[C@H](CCCNC(=N)N)NC(=O)[C@@H](Cc2ccccc2)NC(=O)[C@H](Cc2c[nH]cn2)NC1=O [technetium-99m labelled]: “tissue uptake ratio” 331 (C57 mouse, B16/F1 melanoma-bearing; intravenous, 4 h; reference: tumour over muscle).
Under antibacterial activity, CC(CCC(=O)[O-])C1CCC2C3CCC4CC(O)CCC4(C)C3CC(O)C12C.C[N+](C)(C)CC(O)CC(=O)O (centres unmarked) is recorded as “inactive” (Shigella flexneri; ATCC 9199; 1 mg per disc, 18 to 24 h, 37 °C).
For CCCCc1ccc(-c2nc(C)c(C(C)=NNC(=N)N)s2)cc1, the MIC was 1.3 µg/mL (≈ 3.95 µM) (Staphylococcus aureus; USA300 MRSA).
CC(=O)Oc1ccc(Cn2nc(C)c(=O)[nH]c2=O)cc1C1OC(c2cccc(Cl)c2)=NN1C(C)=O (centres unmarked) has an EC50 of greater than 20 µM (varicella-zoster virus; plaque formation, plaque reduction; HEL fibroblasts, TK- strain 07-1).
COc1ccc(C2=[N+]([O-])c3ccccc3N3CCN=C23)cc1 gave an MIC of 0.25 µg/mL (≈ 0.852 µM) (Finegoldia magna).
For Oc1ccc(C(F)(F)F)cc1-c1nc2c(Cl)cc(Cl)cc2[nH]1, the colistin MIC was 0.25 µg/mL (Acinetobacter baumannii; colistin potentiator; AB 1F9, colistin-resistant; 5 µM).
CCc1nn(C)c2nc(-c3ccc(C(=O)O)cc3)nc(NCc3ccccc3)c12: “parasite shedding reduction” roughly 99% (Cryptosporidium parvum; NSG mouse; oral, 50 mg/kg twice daily, 7 days).
For CN(C)c1ccc(/C=C/C(=O)C(C(=O)c2ccccc2)=C2SCCCCS2)cc1, the MIC50 was greater than 100 µM (Mycolicibacterium smegmatis; pTet-ClpP1P2 chromosomal).
For Nc1ccn(C[C@@H](CO)OCP(=O)(O)OCCCS(=O)(=O)CCCCCCCCCCCCC2CCC2)c(=O)n1, the selectivity index was 23 (human alphaherpesvirus 3; HFF, Ellen; reference: CC50 over EC50).
CN[C@](C)(C[18F])C(=O)O has a tracer uptake of 0.7 %ID/g (DU-145 tumour model; host not given, blood; 2 h, tumour-bearing).
The lethal concentration of CC[C@H](C)[C@H](NC(=O)[C@H](CCCCN)NC(=O)[C@H](CCCCN)NC(=O)[C@H](CC(C)C)NC(=O)[C@H](CCCCN)NC(=O)[C@H](CCC(=O)O)NC(=O)[C@H](CCCCN)NC(=O)[C@@H](NC(=O)[C@H](CCCCN)NC(=O)[C@H](CC(N)=O)NC(=O)[C@H](CCCNC(=N)N)NC(=O)[C@H](Cc1ccccc1)NC(=O)[C@H](CCCCN)NC(=O)[C@H](CCCNC(=N)N)NC(=O)[C@H](CC(C)C)NC(=O)[C@H](CCCNC(=N)N)NC(=O)[C@H](CCCCN)NC(=O)[C@H](CCCNC(=N)N)NC(=O)[C@H](CC(C)C)NC(=O)CN)[C@@H](C)CC)C(=O)NCC(=O)N[C@@H](CCC(N)=O)C(=O)N[C@@H](CCCCN)C(=O)N[C@H](C(=O)N[C@@H](CCC(N)=O)C(=O)NCC(=O)N[C@@H](Cc1ccccc1)C(=O)N[C@H](C(=O)N1CCC[C@H]1C(=O)N[C@@H](CCCCN)C(=O)N[C@@H](CC(C)C)C(=O)N[C@@H](C)C(=O)N1CCC[C@H]1C(=O)N[C@@H](CCCNC(=N)N)C(=O)N[C@H](C(=O)N[C@@H](CC(=O)O)C(=O)N[C@@H](Cc1ccc(O)cc1)C(=O)O)[C@@H](C)O)C(C)C)[C@@H](C)CC is reported as 3.93 µM (Stenotrophomonas maltophilia; inhibition zone; CGMCC 1.179; LB agar, overnight).
The AC50 of COc1ccc(C[C@H]2C(=O)N(C)[C@@H](Cc3ccc(O)cc3)C(=O)N(C)[C@@H](Cc3ccccc3)C(=O)N[C@@H](CC(N)=O)C(=O)NCC(=O)N(C)[C@@H](Cc3ccc(O)cc3)C(=O)N[C@@H](CC(N)=O)C(=O)N[C@@H](Cc3c[nH]cn3)C(=O)N[C@@H](Cc3ccc(O)cc3)C(=O)N[C@@H](Cc3c[nH]c4ccccc34)C(=O)N[C@H](C(N)=O)CSCC(=O)N[C@H](Cc3ccc(O)cc3)C(=O)N[C@@H](CC(=O)O)C(=O)N[C@@H](CO)C(=O)N[C@@H](Cc3ccc(O)cc3)C(=O)N[C@@H](C)C(=O)N2C)cc1 is reported as 2.04 µM (cofactor-independent phosphoglycerate mutase W431C; biochemical; Mycoplasma orale).
CC(=O)[O-].CN(C)C=O.F[P-](F)(F)(F)(F)F.[Co+2].c1ccc(CN2CCN3CCCN(CC2)CCN(Cc2ccccc2)CC3)cc1 has an IC90 of greater than 10 µM (Leishmania donovani; parasite growth; THP-1 macrophages; intracellular amastigotes).
CCn1c(-c2ccc(OC)cc2)c(-c2ccc(OC)cc2)n(CC)c1=[Se+][Au-][P+](CC)(CC)CC.[Cl-] — result for malondialdehyde content: “increased” (Acinetobacter baumannii; carbapenem-resistant; 10, 20, 40 µM, 2 h; reference: untreated).
With [Cl-].[Cl-].[Ni+2].c1ccc(CN2CCNCCN(Cc3ccccc3)CCNCC2)cc1 the IC90 was greater than 20 µM (Leishmania donovani; parasite growth, resazurin; 72 h, promastigote).
Under antibacterial activity, CC(CCC(=O)[O-])C1CCC2C3CCC4CC(O)CCC4(C)C3CCC12C.C[N+](C)(C)CC(O)CC(=O)O (centres unmarked) is recorded as “inactive” (Shigella flexneri; ATCC 9199; 1 mg per disc, 18 to 24 h, 37 °C).
With CC(=O)[O-].F[P-](F)(F)(F)(F)F.[Ni+2].c1ccc(CN2CCN3CCN(CC2)CCN(Cc2ccccc2)CC3)cc1 the IC50 was 11 µM (Leishmania donovani; parasite growth, resazurin; 72 h, promastigote).
For CC(=O)[O-].O.S=c1[nH]c2ccccc2[nH]1.S=c1[nH]c2ccccc2[nH]1.[Ag+].c1ccc(P(c2ccccc2)c2ccccc2)cc1.c1ccc(P(c2ccccc2)c2ccccc2)cc1, “inhibition zone diameter” read 12 mm (Staphylococcus epidermidis; MTCC 435, DMSO; 0.1 mL of 50 mg/mL in 8 mm well, 18 to 24 h).
With COc1cc(-c2ccc3oc(-c4ccsc4)c(C#CC4(O)CCCCC4)c3c2)cc(OC)c1OC the remaining activity was 76.6% (hepatitis C virus; HCV replicon replication; Huh-7.5.1, genotype 1a transient replicon; 10 µM; reference: DMSO).
CC1(C)C(C=C(Cl)Cl)C1C(=O)OCc1c(F)c(F)c(F)c(F)c1F (centres unmarked) — result for “potency relative to permethrin”: no more than 25 fold (Anopheles funestus; glazed tile contact bioassay; FANG susceptible; reference: permethrin).
Under “inhibition zone diameter”, CN[C@@H]1[C@H](O)[C@H](NC)[C@H]2O[C@]3(O)[C@H](O[C@@H]2[C@H]1O)O[C@H](C)C[C@@]3(O)CNCc1ccc(Cl)cc1 is recorded as 16 to 18 mm (Neisseria meningitidis; ATCC 13077; 40 µg per disc).
For CC1(C)CC[C@]2(CO)CC[C@]3(C)C(=CC[C@@H]4[C@@]5(C)CCCNC(C)(C)[C@@H]5CC[C@]43C)[C@@H]2C1, the selectivity index was less than 3 (Human papillomavirus 11; viral replication; C-33 A; reference: CC50 over EC50).
CC(=O)[O-].F[P-](F)(F)(F)(F)F.[Co+2].c1ccc(CN2CCCN3CCN(CCCN(Cc4ccccc4)CC3)CC2)cc1 gave an IC90 of greater than 20 µM (Leishmania donovani; parasite growth, resazurin; 72 h, promastigote).
For C[C@@H](O)[C@@H]1NC(=O)[C@H](CC(=O)O)NC(=O)[C@@H]2CCCN2C(=O)[C@H](Cc2ccc(O)cc2)NC(=O)CSC[C@@H](C(N)=O)NC(=O)[C@H](Cc2c[nH]cn2)NC(=O)[C@H](Cc2c[nH]c3ccccc23)NC(=O)[C@H](CCC(=O)O)NC(=O)[C@H](CC(=O)O)NC(=O)[C@H](Cc2ccc(O)cc2)N(C)C(=O)[C@H](Cc2ccc(O)cc2)NC(=O)[C@H](Cc2c[nH]c3ccccc23)NC(=O)[C@H](Cc2c[nH]c3ccccc23)NC(=O)[C@H](CC(N)=O)NC1=O, the AC50 was 0.00245 µM (cofactor-independent phosphoglycerate mutase W431C; biochemical; Mycoplasma orale).
The IC90 of CC#N.[Cl][Mn-2]([Cl])([Cl])[Cl].[Mn+2].c1ccc(CN2CCCN3CCCN(CCCN(Cc4ccccc4)CC3)CC2)cc1 is reported as 2.68 µM (Leishmania donovani; parasite growth, resazurin; 72 h, amastigote).
The selectivity index of C=CC1CN(C(=O)NCC=CCSCC=CCNC(=O)N2CC(C=C)OC2=S)C(=S)O1 (centres unmarked) is reported as 5.2 (human alphaherpesvirus 1; reference: CC50 over EC50).
For F[P-](F)(F)(F)(F)F.F[P-](F)(F)(F)(F)F.[Cu+2].c1ccc(CN2CCCNCCN(Cc3ccccc3)CCCNCC2)cc1, the IC90 was greater than 20 µM (Leishmania donovani; parasite growth, resazurin; 72 h, promastigote).
For CNC(=O)CNc1cnc2ccc(-c3ccc(OC)c(OC)c3)cc2n1, antiparasitic activity read “inactive” (Cryptosporidium hominis; cytopathic effect; HCT-8; concentration not given).
